# Measurements collected from several papers.
# Protocols differ between the studies behind these lines. Values joined by “and” are separate records of one study, mostly repeats; a detail may differ. ± marks the error that the study gave.
Compound,tested on,test,system,setting,how to read,measurement,value
Cc1ccc(-n2cc(CSc3nc4ccccc4n3Cc3cn(-c4ccc(C)cc4)nn3)nn2)cc1,Caco-2,MTT,,250 ppm,,cytotoxicity,89.3%
C[C@@H]1CC[C@@H]([C@@](O)(CNCc2ccc(F)cc2)COCc2ccccc2)[C@H](OCc2ccccc2)C1,A2780,"cell growth or viability, MTT",,"30 µM, 72 h",,inhibition,94%
CNS(=O)(=O)Nc1nccc(Cc2c(C)c3ccc(Oc4ncccc4F)cc3oc2=O)c1F,MP41,cell viability,,7 days,,IC50,0.0798 µM
Cc1ncsc1-c1ccc(C(C)NC(=O)C2CC(O)CN2C(=O)C(NC(=O)CCCCCCCCCCN2CCCC(Nc3ncc(Cl)c(Nc4ccccc4S(=O)(=O)C(C)C)n3)C2)C(C)(C)C)cc1 (centres unmarked),22Rv1,"RNA-seq, item: PLCD4 mRNA",,concentration not given,baseline: DMSO,log2 fold change,-1.83
COC1CN([C@H]2CC[C@H]([C@@]3(C)Oc4c(Cl)cc(C(=O)NCc5c(SC)cc(C)[nH]c5=O)c(C)c4O3)CC2)C1,,"RNA-seq, item: TCF7L2","human, whole blood","dose not given, 24 h",baseline: pretreatment baseline,log2 fold change,1.17
Cc1nn(-c2cccc(N)c2)c(=O)c2cnc(Nc3ccc(N4CCNCC4)cc3)nc12,"Epidermal growth factor receptor (EGFR, Homo sapiens, UniProt P00533, L858R)","enzyme activity, inhibitor",,,,IC50,> 10 µM
O=C(CC(=O)Nc1ccc2[nH]nc(/C=C/c3ccccn3)c2c1)Nc1cccc(F)c1,BaF3,"cell growth or viability, CCK-8",,,,GI50,> 10 µM
COc1ccc(CSC2C3=C(CCCC3=O)Oc3ccc(Br)cc32)cc1 (centres unmarked),3T3-L1 mature adipocytes,"lipolysis, Oil Red O staining",,IC20,,mean lipid content,0.723 OD492
O=C(c1ccc([C@H]2[C@@H](F)[C@@H](F)C[C@@H](F)[C@H]2F)cc1)N1CCC(F)CC1,,hepatocyte stability,cryopreserved mouse hepatocytes,1 µM,,hepatic clearance,72 mL/min/kg
C=C(NC(=O)c1csc(-c2nc3c(cc2O)-c2nc(cs2)C(=O)NC(C(C)O)C(=O)NC(=C(C)OC)c2nc(cs2)C(=O)NC2c4nc(cs4)C(=O)NC(COC(=O)c4c5c6c(cccc6n4O)COC(=O)C(OC4CC(C)(O)C(N(C)C)C(C)O4)C2OC5)c2nc-3cs2)n1)C(N)=O (centres unmarked),,,"cynomolgus monkey, male, plasma","intravenous infusion, 1.5 mg/kg twice daily, 0 to 30 h",,Cmax,13500 ng/mL
CC(C)(C)c1nc(-c2cccc(NS(=O)(=O)c3c(F)cccc3F)c2F)c(-c2ccnc(N)n2)s1.Cc1[nH]c2ccccc2c1CCNCc1ccc(/C=C/C(=O)NO)cc1,A2780,annexin V/PI flow cytometry,,"concentration not given, 48 h",baseline: untreated,late apoptotic cells,6.7 ± 0.7%
C=CC(=O)Nc1cccc(Cn2ncc3cnc(Nc4cnn(CCOC)c4)nc32)c1,CDK3 human,"binding, KINOMEscan",,100 nM,lower = stronger binding,percent of control,88%
CCN(CC)CC(=O)Nc1cccc(-n2cc(-c3ccc4ccc(-c5cn(-c6cccc(NC(=O)CN(CC)CC)c6)nn5)cc4c3)nn2)c1,RCC4,"PCR angiogenesis array, item: GAPDH",,"5 x IC50, 4 h, normoxia",baseline: untreated,fold regulation,-1.15 fold
CC12CCCC(NS(=O)(=O)c3ccc(Cl)c([N+](=O)[O-])c3)(C1)C1CC(C)(C)C1CC2 (centres unmarked),HT-29,"cell growth or viability, CCK-8",,50 µM,,inhibition,100%
CCC(=CCc1c(O)cc2c(c1O)C(=O)CC(c1ccc(O)cc1OC)O2)CC (centres unmarked),HeLa,"cell growth or viability, MTT",,"12.5 µM, 48 h",,inhibition,21.8%
Nc1ncc(-c2cc(-c3cnn(CC(F)(F)F)c3)ncc2F)nc1C(=O)NC1CNCC(F)C1 (centres unmarked),MEK3,KINOMEscan,,1 µM,baseline: DMSO control,remaining binding,86%
O=S(=O)(Nc1ccc(OC(F)(F)F)cc1)N1CCCC(C2c3ccc(F)cc3CCc3cc(F)ccc32)C1 (centres unmarked),D341,"immunoblot, item: CIP2A",,concentration not given,,protein level,decreased
N#C[C@@H]1CCCN1C(=O)CNC(=O)c1ccnc2ccc(OCCCN3CCN(C(=O)CCc4ccc5c(c4)CN4CCN(Cc6cc(CCC(=O)O)ccc6O)CC(=O)[O][Al-]([18F])([O]C(=O)C4)[O]5)CC3)cc12 (some centres unmarked),HT1080 cells expressing human FAP,,,"120 min, 37 °C",,internalized fraction,72.5 ± 4.6%
N#Cc1cccc(/C=C/C(=O)c2ccc(O)cc2)c1,U-87 MG,item: TRIB3,,concentration not given,baseline: untreated,fold change,81.2
O=c1cc(NCCO)c2ccccc2o1,COS-7 (untransfected),,,"500 µM, unit not given",baseline: 3 µM ionomycin,calcium mobilisation signal,1.95 ± 1.03
CC(=O)N[C@H](C(=O)N[C@@H](CCC(=O)O)C(=O)N[C@@H](CO)C(=O)N[C@@H](CC(=O)O)C(=O)COC(=O)c1c(C)cccc1C)[C@@H](C)O,"THP-1 cells, LPS-primed","pyroptosis, LDH release",,"25 µM, LPS 1 µg/mL, 4 h, with: nigericin 5 µM, 2 h",,cell lysis,86.2% and 84.9%
CCC(=CCc1c(O)cc2c(c1O)C(=O)CC(c1ccc(O)c(OC)c1)O2)CC (centres unmarked),HeLa,"cell growth or viability, MTT",,"0.781 µM, 48 h",,inhibition,3.75%
CC(=O)N[C@@H](CC(=O)O)C(=O)N[C@@H](Cc1ccc2ccccc2c1)C(=O)N[C@@H](C)C(=O)N[C@@H](CC(=O)O)C(=O)COC(=O)c1c(C)cccc1C,"THP-1 cells, LPS-primed","pyroptosis, LDH release",,"25 µM, LPS 1 µg/mL, 4 h, with: nigericin 5 µM, 2 h",,cell lysis,94%
Cn1ncc2cc(-c3cncc(Cl)c3N3CCC4(CCNC4=O)CC3)ccc21,LS174T,"gene expression, microarray, item: KANK1 mRNA",,"concentration not given, 24 h",baseline: untreated cells,log2 fold change,2.52
Cc1ccc(-c2ccc(C3CCCCC3)cc2)cn1,,liver microsome stability,cynomolgus liver microsomes,1 µM,,hepatic clearance,39 mL/min/kg
CN1CCCNC(=O)c2cccc(c2)C(=O)NCCCN(C)CCCNc2cccc3c2C(=O)c2cccc(c2C3=O)NCCC1,SAS,"RNA-Seq, item: WDR81 mRNA",,"1 µM, 6 h",baseline: untreated cells,log2 fold change,1.18

# Repeated from above:
Compound,tested on,test,system,setting,how to read,measurement,value
CC(C)(C)c1nc(-c2cccc(NS(=O)(=O)c3c(F)cccc3F)c2F)c(-c2ccnc(N)n2)s1.Cc1[nH]c2ccccc2c1CCNCc1ccc(/C=C/C(=O)NO)cc1,A2780,annexin V/PI flow cytometry,,"concentration not given, 48 h",baseline: untreated,late apoptotic cells,6.7 ± 0.7%
Cc1ccc(-n2cc(CSc3nc4ccccc4n3Cc3cn(-c4ccc(C)cc4)nn3)nn2)cc1,Caco-2,MTT,,250 ppm,,cytotoxicity,89.3%
